Measurements pooled from the literature.
Each numbered part is a random draw from the data of one study; scales do not carry over between parts. Substitutions count along the parent as printed.

Block 1
Species: mouse
Matrix: microsomes or S9
Concentration: 2 µM
Time: 0.5 h
For `Cn1c(=O)c2[nH]c(N3CCN(c4cccc(O)c4)CC3)nc2n(C)c1=O`, the remaining compound was 57.8%.
With `Cc1ccc(NC(=O)Nc2ccc(Cc3ccc(NC(=O)OC(C)(C)C)cc3)cc2)cc1` the remaining compound was 42.5%.
`c1ccc2c(c1)oc1c(N3CCN(Cc4ccc5c(c4)OCO5)CC3)ncnc12` has a remaining compound of 14.2%.
`c1ccc(C2CCCN2Cc2ccc3occc3c2)nc1` (stereo not shown) gave a remaining compound of 0.0244%.
With `O=C(c1csc(-c2ccsc2)n1)N(Cc1ncc[nH]1)c1cccc(F)c1` the remaining compound was 1.15%.
`CCOC(=O)c1cnc2nc(C3CCC3)nn2c1C` has a remaining compound of 0.268%.
The remaining compound of `Cc1c(-c2cc(Cn3ccnc3C(C)C)on2)cnn1C` is reported as 2.23%.
`CC(C)[C@H](NC(=O)c1ccc2nc(-c3ccc(NC(=O)NCc4ccccc4)cc3)cn2c1)C(=O)O` gave a remaining compound of 41.7%.
`COc1cc(=O)n(C)cc1C(=O)NCCc1ccc(S(N)(=O)=O)cc1` gave a remaining compound of 92.2%.
`Cc1nc2c(c(C)c1CNC(=O)COC1CCCCC1)c(=O)[nH]n2C` has a remaining compound of 80.9%.
The remaining compound of `COC(=O)C12CCC(=O)N1CCc1c2n(C(=O)OC(C)(C)C)c2ccccc12` (stereo not shown) is reported as 10.4%.
With `COc1cc(CC2CC(c3cc(OC)c4c(c3)OCO4)=NO2)cc2c1OCO2` (stereo not shown) the remaining compound was 1.2%.

Block 2
Target: Interferon regulatory factor 3, full length, phosphomimetic (IRF3, Homo sapiens, UniProt Q14653, residues 1-427, S386D/S396D/S398D/S402D/T404D/S405D)
UniProt Q14653, sequence (whole entry, unmodified, looked up): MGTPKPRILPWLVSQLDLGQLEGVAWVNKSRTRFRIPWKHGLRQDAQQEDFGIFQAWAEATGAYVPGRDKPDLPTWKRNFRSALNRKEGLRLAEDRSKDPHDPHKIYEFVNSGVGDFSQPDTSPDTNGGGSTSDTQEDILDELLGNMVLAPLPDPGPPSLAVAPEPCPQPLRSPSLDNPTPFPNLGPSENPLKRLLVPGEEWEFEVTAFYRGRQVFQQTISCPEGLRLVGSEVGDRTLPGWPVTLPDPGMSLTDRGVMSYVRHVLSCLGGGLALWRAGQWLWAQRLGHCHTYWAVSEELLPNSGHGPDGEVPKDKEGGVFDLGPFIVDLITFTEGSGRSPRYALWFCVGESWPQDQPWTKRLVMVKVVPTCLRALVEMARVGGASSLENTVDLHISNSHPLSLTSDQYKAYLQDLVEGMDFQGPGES
Technique: protein-binding microarray
Molecule type: double-stranded DNA, one strand shown
Matrix: in vitro
Concentration: 2540 nM top
Setting: 60-bp whole probe
Together with: salmon DNA 0.4 mg/ml
Baseline: random background probes
Reading: higher = stronger binding
All sequences stand within: GCCTAGCAC … GTCTTGATTCGCTTGACGCTGCTG
Under “fitted relative affinity”, `GACTGACTGGACTATCGGGACGTGCTA` is recorded as -0.306 z-score.
For `TTAGGACTGGGATTTCGGTTAGTGCTA`, “fitted relative affinity” read 0.373 z-score.
For `GACGATTTCGGGCTTCGAGACGTGCTA`, “fitted relative affinity” read 1.27 z-score.
`GACGGTATCGACTTTCGGGGCGTGCTA`: “fitted relative affinity” 1.13 z-score.
Under “fitted relative affinity”, `ACCTAATTCACTATTACCAAGTGCTAG` is recorded as 2.01 z-score.
`GACGATATCAGTAGCGAGACGTGCTAG`: “fitted relative affinity” -0.0849 z-score.
Under “fitted relative affinity”, `TTTTCCAGAGGCCCAGCCAGGTGCTAG` is recorded as 1.17 z-score.
Under “fitted relative affinity”, `GACGACCTCAGACTGGAGACGTGCTAG` is recorded as -0.505 z-score.

Block 3
Target: ABI1, truncated, D143A, DHFR fusion (Arabidopsis thaliana)
Technique: DHFR PCA, deep sequencing
Matrix: yeast
Setting: methotrexate growth selection, single substitutions
Together with: (+)-ABA 1.4 µM
Baseline: wild-type fitted maximum
Reading: higher = stronger binding
Parent: PYL1, truncated, DHFR fusion (Arabidopsis thaliana); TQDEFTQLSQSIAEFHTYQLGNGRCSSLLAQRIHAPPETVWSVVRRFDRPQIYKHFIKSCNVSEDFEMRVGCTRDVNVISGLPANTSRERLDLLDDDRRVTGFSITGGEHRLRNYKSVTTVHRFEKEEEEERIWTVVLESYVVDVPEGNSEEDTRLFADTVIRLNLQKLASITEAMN
Under “relative binding score”, `L94C` is recorded as 13%.
`T86H` — result for “relative binding score”: 68.2%.
`E125R` — result for “relative binding score”: 59.3%.
Under “relative binding score”, `N22K` is recorded as 65%.
`K116S`: “relative binding score” 53.5%.
`N61D`: “relative binding score” 60.4%.
`P146H`: “relative binding score” 2.83%.
`T135D`: “relative binding score” -0.318%.

Single results of other studies
`IQGAP1 (Homo sapiens, UniProt P46940)`: cross-linked residues “K774 to E14” (MYL6 (Homo sapiens, UniProt P60660); cross-linking MS; cell fractions; together with: DMTMM).
With `C[C@H](NC(=O)Nc1cc2[nH]ncc2c(CO)n1)c1ccccn1` the inhibition was 12.8% (Sigma non-opioid intracellular receptor 1 (SIGMAR1, Homo sapiens, UniProt Q99720); cell-free assay; 10 µM).
`PSMD9 (Homo sapiens, UniProt O00233)`: cross-linked residues “K91 to K173” (PSMC3 (Homo sapiens, UniProt P17980); cross-linking MS; cell fractions; together with: DSSO).

Repeated from above (block 2):
Under “fitted relative affinity”, `TTTTCCAGAGGCCCAGCCAGGTGCTAG` is recorded as 1.17 z-score.
Under “fitted relative affinity”, `GACGACCTCAGACTGGAGACGTGCTAG` is recorded as -0.505 z-score.
`GACGATATCAGTAGCGAGACGTGCTAG`: “fitted relative affinity” -0.0849 z-score.
`GACGGTATCGACTTTCGGGGCGTGCTA`: “fitted relative affinity” 1.13 z-score.
